# Measured values collected from several papers.
# A part holds a random share of what one study measured.

# Series 1 — method: protein-binding microarray; molecule type: double-stranded DNA, one strand shown; sample: in vitro; tested at: 0.8 µM; notes: whole 60-bp probe, no competitor; reading: higher = stronger binding
# Target: Centromere-binding protein 1, full length, N-terminal tag (CBF1, Saccharomyces cerevisiae, UniProt P17106, residues 1-351)
# Sequence of UniProt P17106 (whole entry, looked up): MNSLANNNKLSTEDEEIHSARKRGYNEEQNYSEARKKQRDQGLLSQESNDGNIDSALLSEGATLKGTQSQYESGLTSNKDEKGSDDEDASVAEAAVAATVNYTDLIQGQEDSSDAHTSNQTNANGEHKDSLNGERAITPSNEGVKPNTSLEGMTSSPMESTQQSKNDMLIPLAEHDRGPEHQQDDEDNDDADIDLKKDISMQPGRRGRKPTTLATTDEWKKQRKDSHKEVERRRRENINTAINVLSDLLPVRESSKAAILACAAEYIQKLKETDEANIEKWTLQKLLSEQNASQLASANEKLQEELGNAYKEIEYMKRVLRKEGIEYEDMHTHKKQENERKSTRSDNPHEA
Strand,fluorescence intensity
CCTAACTACTATACAAGCGTGCCATAGCTTCGTACAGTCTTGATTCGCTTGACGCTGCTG,534 a.u.
GAAATTTCCAACTTACACATGGAGCCGTTGTATTAGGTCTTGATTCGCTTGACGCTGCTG,520 a.u.
CCTAACTACTATACACTGGTGATATAGCTTCGTACAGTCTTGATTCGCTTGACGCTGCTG,517 a.u.
CCTAACTACTATAGTCACCTGCGATAGCTTCGTACAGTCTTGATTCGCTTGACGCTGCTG,834 a.u.
CTATATTGTTACCACCACCTCCCCGTGATTTACTTCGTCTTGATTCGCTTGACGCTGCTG,2350 a.u.
CTATTTTGGAAAAGCAACGTGCGCAACAATGAATTCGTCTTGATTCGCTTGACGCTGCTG,704 a.u.
TGTACGAAGCTATGTGACGTTTGTATAGTAGTTAGGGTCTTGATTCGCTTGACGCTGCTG,533 a.u.
CTATCTGATGAAGGGCACGTATAGGTCAGTGACTTCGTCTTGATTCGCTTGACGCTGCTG,548 a.u.
GAACCTCTTACACCGCATGTGATATAATAGTAATAGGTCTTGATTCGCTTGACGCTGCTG,1580 a.u.
GAAAAACCCTTAGGTCATCTGATTTTTAGGGTTTAGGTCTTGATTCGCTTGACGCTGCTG,1150 a.u.
TGTACGAAGCTATCTGACCACCTTATAGTAGTTAGGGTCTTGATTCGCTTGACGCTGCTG,499 a.u.
CTAGAAAAGCCGCCTCTGCTGATCATGAATGACTTCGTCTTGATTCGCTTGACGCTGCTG,531 a.u.
CCTAACTACTATAGGTGACTCACATAGCTTCGTACAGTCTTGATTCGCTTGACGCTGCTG,517 a.u.
GAAACAGGTAATATTGGCATGATGCGAAATTGGTAGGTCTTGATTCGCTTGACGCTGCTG,544 a.u.
GAAATACTGTTTTTATGCGTGCGTACGCAACAGTAGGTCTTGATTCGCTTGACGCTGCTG,518 a.u.
GAATTCACTTTGAGTCACCACGTAGCAATTCTTTAGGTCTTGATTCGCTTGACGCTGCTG,556 a.u.
CTATTTGAATGTCGTTCGTCATCAGCGCGGCCATTCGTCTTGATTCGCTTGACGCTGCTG,514 a.u.
CTAATAGTTATGAAATACCTGATGAAACGCTTCTTCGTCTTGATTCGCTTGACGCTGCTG,523 a.u.

# Series 2 — method: RNA Bind-n-Seq; molecule type: RNA; sample: in vitro; tested at: 20 nM; notes: 6-mer, flanks averaged, single round; together with: 150 mM KCl; relative to: input library; reading: higher = stronger binding
# Target: TAR DNA-binding protein 43, full length, His tag (TARDBP, Homo sapiens, UniProt Q13148, residues 1-414)
Strand,6-mer enrichment (R)
GUAAAA,0.745
AGGGCC,2.09
CUCCUA,0.583
CAGCCA,0.7
CGUGGG,3.5
AACGGG,2.17
AUAUUG,0.659
UGCGGG,4
UCUGGG,1.81
AAUGUC,0.629
CAUGGU,0.825
GAUCCA,0.655
CUCGGC,0.797
GUGAGC,1.39
AGGUAG,1.46
AGGAAU,0.823
UUACAC,0.603
GGUGUC,1.33
AGCUUC,0.566

# Series 3 — method: protein binding microarray; molecule type: double-stranded DNA, one strand shown; sample: in vitro; tested at: not given; relative to: not given; reading: higher = stronger binding
# Target: Histone acetyltransferase KAT6A, both winged helices, GST fusion (KAT6A, Homo sapiens, UniProt Q92794, residues 1-181)
# Notes: 8-mer, flanks averaged, mean of 2 arrays, mostly near background
# Target sequence (chain): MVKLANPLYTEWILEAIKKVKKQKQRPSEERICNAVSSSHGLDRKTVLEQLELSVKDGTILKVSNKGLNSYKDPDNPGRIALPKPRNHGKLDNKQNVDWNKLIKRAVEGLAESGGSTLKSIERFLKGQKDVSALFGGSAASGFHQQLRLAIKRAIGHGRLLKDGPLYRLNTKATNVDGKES
Strand,E-score
CGGCCCGA,0.209
ACTGAGGG,-0.216
ACTCCCCG,0.207
AATTACGC,0.0837
AATTCCTA,-0.221
CCCTAGCG,-0.00465
TCAAGAAA,-0.197
ACACACTA,-0.0139
AGCGCATG,0.153
AGATCACA,-0.0833
CCGAGCTA,0.157
AGATAGTC,-0.0678
CTACGGGC,0.209
ACGTCTAT,-0.153
CGAACCGC,0.206
GGATCGTA,-0.00314
AATTCCGC,0.145
AACTGTCG,0.0289
TACTTAGA,-0.152
CCGATATA,0.00553
CAATCGTG,-0.0537
ATCGATTC,-0.108
GTCTGACA,0.0568

# Series 4 — method: protein-binding microarray; molecule type: double-stranded DNA, one strand shown; sample: in vitro; tested at: 2200 nM top; notes: 60-bp whole probe; together with: salmon DNA 0.4 mg/ml; relative to: random background probes; reading: higher = stronger binding; constant ends, left off below: GCCTAGCAC … GTCTTGATTCGCTTGACGCTGCTG
# Target: Interferon regulatory factor 7, full length, phosphomimetic (IRF7, Homo sapiens, UniProt Q92985, residues 1-503, S471D/S472D/S475D/S476D/S477D/S483D/S484D/S487D)
# Residues (chain): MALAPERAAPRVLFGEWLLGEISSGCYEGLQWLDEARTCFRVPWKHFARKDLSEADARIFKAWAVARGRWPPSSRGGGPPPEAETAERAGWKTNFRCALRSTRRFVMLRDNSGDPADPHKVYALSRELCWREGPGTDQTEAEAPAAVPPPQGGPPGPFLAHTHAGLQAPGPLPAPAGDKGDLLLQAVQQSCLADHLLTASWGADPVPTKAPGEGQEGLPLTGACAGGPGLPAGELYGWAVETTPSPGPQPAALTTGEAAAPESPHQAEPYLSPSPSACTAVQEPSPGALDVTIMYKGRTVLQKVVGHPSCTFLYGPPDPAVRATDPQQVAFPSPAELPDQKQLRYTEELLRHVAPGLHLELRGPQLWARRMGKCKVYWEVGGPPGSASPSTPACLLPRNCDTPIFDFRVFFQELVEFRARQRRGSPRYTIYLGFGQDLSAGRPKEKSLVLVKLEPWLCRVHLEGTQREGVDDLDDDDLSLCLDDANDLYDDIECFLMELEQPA
Strand,fitted relative affinity [z-score]
GACGGCATCGGGACTGGGGACGTGCTA,-0.874
TTAGATATCAGTATCGAGTAGTGCTAG,0.087
TTAGGCATCCTTTTCCTTTAGTGCTAG,0.844
TGAGATCTCAGTTTCGATTAGTGCTAG,5.63
GACGGTTTCCATATCCTGACGTGCTAG,3.59
TTAGAACCGAGTCTCGATTAGTGCTAG,0.317
GACGGACGGGGTCTCGGGACGTGCTAG,-0.773
GACGGTATTGGGTTTCGGGACGTGCTA,1.42
GTAGAACTGAGTTTCGATTAGTGCTAG,3.8
GACGATTTCGGGACGGGAGACGTGCTA,1.7
TCACTTCTGGACTGTTTGACTGTGCTA,1.45
GACGGTATCGGGACTGGGGATGTGCTA,-0.402
TTAGGTTCCCTTTTCCTTCAGTGCTAG,3.01
TTTGATTTCGGGTTTCGATTAGTGCTA,6.81
GACGATCTCAGTATCGAGAGGTGCTAG,-0.191
TTAGATTACAGTATCGATTAGTGCTAG,0.174
TTAGGTTTCGACTCTCGGTTAGTGCTA,6.42
TTAGGTCTCGGTATCGGCTAGTGCTAG,0.482
GACGATATCAGACTTGAGACGTGCTAG,-0.103

# Repeated from above (series 2):
Strand,6-mer enrichment (R)
CAUGGU,0.825
GAUCCA,0.655
CUCGGC,0.797
GUGAGC,1.39
AGGUAG,1.46
AGGAAU,0.823
